Measurements gathered from unrelated publications.
Lines come from different studies, so protocols differ. Several values in a cell are separate wells, animals, samples, runs or records. Numbers after ± are the reported error. Converted amounts (≈) assume the structure as drawn.

| SMILES | target or system | test | test system | conditions | scale | measurement | value |
| --- | --- | --- | --- | --- | --- | --- | --- |
| C=CC(=O)N1CC/C(=C\c2ccc(F)c([N+](=O)[O-])c2)C(=O)/C(=C/c2ccc(F)c([N+](=O)[O-])c2)C1 | human alphaherpesvirus 1 |  | primary human fibroblasts, K26 GFP |  | baseline: CC50 over IC50 | selectivity index | 2.73 |
| N=C(N)c1ccc(OCc2cc(Br)cc(COc3ccc(C(=N)N)cc3)c2)cc1 | Escherichia coli | checkerboard | BW25113 | concentration not given, lowest-FICI combination, with: rifampicin |  | MIC of compound in combination | 12.5 µg/mL |
| CC(=O)NC[C@H]1CN(c2ccc(N3CCOCC3)c(F)c2)C(=O)O1 | Staphylococcus haemolyticus |  | mouse systemic infection | intravenous | survival | ED50 | 13.4 mg/kg |
| NC(=O)c1ncn([C@@H]2O[C@H](CO)[C@@H](O)[C@H]2O)n1 | Pepper mild mottle virus |  |  | 500 µg/mL |  | inactivation activity | 56% and 55% and 58% |
| O=c1c(-c2nc3ccccc3s2)cc2c(n1NS(=O)(=O)c1ccccc1)CCCC2 | Coxsackievirus B4 | viral replication, plaque reduction | BGM cells | non-toxic concentration |  | reduction | 50% |
| COC(=O)[C@H](Cc1ccc(O)cc1)NCc1cc2ccccc2nc1SC | Pseudomonas aeruginosa |  |  | 32 µg/mL, with: pentamidine 100 µM | baseline: control | growth | 52.1% |
| N=C(N)c1ccc(OCc2ccccc2COc2ccc(C(=N)N)cc2)cc1 | Escherichia coli | checkerboard | mcr-1 polymyxin-resistant | concentration not given, 20 h, with: rifampicin |  | MIC of compound in combination | 25 µg/mL |
| Cc1cccc(C)c1N(CC(=O)Nc1ccc(-c2ncon2)cc1)C(=O)C1CCS(=O)(=O)CC1 | human alphaherpesvirus 1 |  | primary human fibroblasts, K26 GFP | CC50 capped at 10.00 µM | baseline: CC50 over IC50 | selectivity index | > 100 |
| Cc1cc(OC(C)C)ccc1C(=O)C(C)(C)NC(=O)c1sccc1C | Botrytis cinerea | conidial germination | B05.10 | 30 µg/mL |  | inhibition | 100% |
| CN[C@H](CC(C)C)C(=O)N[C@H]1C(=O)N[C@@H](CC(N)=O)C(=O)N[C@H]2C(=O)N[C@H]3C(=O)N[C@H](C(=O)N[C@H](C(=O)O)c4cc(O)cc(O)c4-c4cc3ccc4O)[C@H](O)c3ccc(c(Cl)c3)Oc3cc2cc(c3O[C@@H]2O[C@H](CO)[C@@H](O)[C@H](O)[C@H]2O[C@H]2C[C@](C)(N)[C@H](O)[C@H](C)O2)Oc2ccc(cc2Cl)[C@H]1O | coagulase-negative staphylococci |  |  | concentration not given, MIC ≤1 µg/mL |  | isolates inhibited | 20.8% |
| CN[C@H](CC(C)C)C(=O)N[C@H]1C(=O)N[C@@H](CC(N)=O)C(=O)N[C@H]2C(=O)N[C@H]3C(=O)N[C@H](C(=O)N[C@H](C(=O)O)c4cc(O)cc(O)c4-c4cc3ccc4O)[C@H](O)c3ccc(c(Cl)c3)Oc3cc2cc(c3O[C@@H]2O[C@H](CO)[C@@H](O)[C@H](O)[C@H]2O[C@H]2C[C@](C)(N)[C@H](O)[C@H](C)O2)Oc2ccc(cc2Cl)[C@H]1O | Streptococcus pyogenes |  | ATCC 13813 | 1 strain |  | MIC50 | 0.5 µg/mL (≈ 0.345 µM) |
| CCn1c(=O)c(-c2cc[nH]n2)cc2c(C)nc(N)nc21 | Coxsackievirus B4 | viral replication | HeLa, CVB4-5 | concentration not given, 20 h |  | viral titre | decreased |
| COC[C@H]1O[C@@H]2O[C@@H]3[C@@H](OC)[C@@H](OC)[C@@H](O[C@@H]4[C@@H](OC)[C@@H](OC)[C@@H](O[C@@H]5[C@@H](OC)[C@@H](OC)[C@@H](O[C@@H]6[C@@H](OC)[C@@H](OC)[C@@H](O[C@@H]7[C@@H](OC)[C@@H](OC)[C@@H](O[C@@H]1[C@@H](OC)[C@H]2OC)O[C@@H]7COC)O[C@@H]6COC)O[C@@H]5COC)O[C@@H]4COC)O[C@@H]3COC | Escherichia coli | LuxR reporter, agonist | DH5α sensor strain | 200 µM |  | bioluminescence | 816 ± 41 RLU |
| COc1ccc(-c2nc(N3CCOCC3)c3sc(CN(C)c4ncc(C(=O)NO)cn4)cc3n2)cn1 | human alphaherpesvirus 1 |  | primary human fibroblasts, K26 GFP |  | baseline: CC50 over IC50 | selectivity index | < 0.02 |
| CCCc1nn(C)c2c(=O)[nH]c(-c3cc(S(=O)(=O)N4CCN(C)CC4)ccc3OCC)nc12 | Cryptosporidium parvum | parasite growth, immunofluorescence imaging | HCT-8, Iowa | 2 µM |  | inhibition | -17.2% and 24.2% |
| O=C(O)CCCC(=O)O | Cryptosporidium parvum | image-based | HCT-8 | 1 mM, 24 h post-infection | baseline: PBS | relative parasite number | 1.01 ± 0.153 |
| Nc1nc(-c2ccccc2)nc2[nH]nc(Nc3ccc(C(F)(F)F)cc3)c12 | coxsackievirus B3 |  | 31-1-93, NMRI mice, CVB3 chronic myocarditis | oral, 100 mg/kg twice daily, day 10, dosed days 3 to 10, score scale 0 to 7 | direction not given | clinical score | 1.3 |
| O=C(/C=C\n1cnc(-c2cc(C(F)(F)F)cc(C(F)(F)F)c2)n1)NNc1ccccn1 | human alphaherpesvirus 1 | live-cell GFP imaging | primary human keratinocytes, K26 GFP |  |  | IC50 | 1760 nM |
| COC(=O)[C@@H](CCSC)NCc1cc2ccccc2nc1SC | Pseudomonas aeruginosa |  |  | 64 µg/mL, with: pentamidine 100 µM | baseline: control | growth | 65.4% |
| CC(=O)NC[C@H]1CN(c2ccc(N3CCOCC3)c(F)c2)C(=O)O1 | Staphylococcus aureus | broth microdilution | vancomycin-resistant VRS10 |  |  | MBC | 32 µM (≈ 10.8 µg/mL) |

| SMILES | target or system | test | test system | conditions | scale | measurement | value |
| --- | --- | --- | --- | --- | --- | --- | --- |
| COC(=O)[C@H](Cc1c[nH]c2ccccc12)NCc1cc2ccccc2nc1SC | Pseudomonas aeruginosa |  |  | 2 µg/mL, without pentamidine | baseline: control | growth | 100% |
| Cc1cc2nc3c(=O)[nH]c(=O)nc-3n(C[C@H](O)[C@H](O)[C@H](O)CO)c2cc1C |  | binding, equilibrium dialysis LC-MS |  | 5 µM, thermostabilized A2AR-BRIL construct | baseline: no-protein control, direction not given | z-scored log2 fold change | -0.0567 |
| CNC(C)C1CCC(N)C(OC2C(N)CC(N)C(OC3OCC(C)(O)C(NC)C3O)C2O)O1 (stereo not drawn) | Salmonella enterica serovar Infantis | broth microdilution | clinical isolate RKI-No 277/14 |  |  | MIC | > 8 µg/mL |
| Cc1nc(N(C)C(=O)Cc2ccc(-c3ccccn3)cc2)sc1S(N)(=O)=O | human alphaherpesvirus 1 |  | K26 GFP, 3D skin equivalent, air-liquid |  | baseline: CC50 over IC50 | selectivity index | > 52.6 |
| N=C(N)c1ccc(OCCC(CCOc2ccc(C(=N)N)cc2)c2ccccc2)cc1 (stereo not drawn) | Escherichia coli | checkerboard | W3110 | unit not given, with: rifampicin | lower = stronger synergy | FICI | 0.063 |
| CC(C)n1ncc2c(C(=O)NCC3(C)CNC3)cc(C3CC3)nc21 | Enterovirus D68 | cytopathic effect | RD, US/IL/14-18952 | 1500 nM |  | cell protection | 97.6% and 98.9% and 98.6% |
| O=C(CO)N[C@H]1[C@H]([C@H](O)[C@H](O)CO)O[C@](O)(C(=O)O)C[C@@H]1O |  | binding, equilibrium dialysis LC-MS |  | 5 µM, thermostabilized A2AR-BRIL construct | baseline: no-protein control, direction not given | z-scored log2 fold change | 0.169 |
| N=C(N)c1ccc(OCc2cc(COc3ccc(C(=N)N)cc3)cc(-c3ccccc3)c2)cc1 | Escherichia coli | checkerboard | BW25113 | synergy at FICI ≤0.5, unit not given, with: novobiocin | lower = stronger synergy | FICI | ≤ 0.039 |
| COc1ccnc(C(=O)O)c1O | Daphnia magna | immobilisation, semi-static water exposure |  | 48 h |  | EC50 | > 9.5 µg/mL |
| CNC(C)C(=O)O (racemic) | Cryptosporidium parvum | image-based | HCT-8 | 1 mM, 24 h post-infection | baseline: PBS | relative parasite number | 0.99 ± 0.076 |
| CCCCCCc1ccc(Oc2ccccc2Cl)c(O)c1 | Mycobacterium tuberculosis |  | mouse, rapid infection model, spleen | 25 mg/kg twice daily, SMEDDS formulation, with: rifampicin 10 mg/kg | baseline: rifampicin alone | additional CFU reduction | 1.4 log10 CFU |
| CC(C)c1cnn2c(NCc3ccccc3-n3cccn3)nc(OC3CCCNC3)nc12 (stereo not drawn) | human alphaherpesvirus 1 | viral replication, GFP live imaging | primary human fibroblasts, K26 GFP-expressing |  |  | IC50 | 990 nM |
| CC(C)CC(=O)C(=O)[O-].[Na+] | Cryptosporidium parvum | image-based | HCT-8 | 1 mM, 24 h post-infection | baseline: PBS | relative parasite number | 0.86 ± 0.246 |
| Cc1ccc(NC(=O)N2Cc3[nH]cnc3C[C@H]2c2nc(-c3ccc4c(c3)OCO4)no2)cc1 | Caenorhabditis elegans |  | N2 | 50 µM |  | mean lifespan | 21.1 days |
| CC1(C)S[C@@H]2[C@H](NC(=O)[C@H](N)c3ccccc3)C(=O)N2[C@H]1C(=O)O | Salmonella enterica serovar Choleraesuis | broth microdilution | clinical isolate RKI-No 532/14-1 |  |  | MIC | > 16 µg/mL |
| [N-]=[N+]=N[C@]1(CO)O[C@@H](n2ccc(N)nc2=O)[C@@H](F)[C@@H]1O | dengue virus 2 | viral replication, high-content imaging | Huh7.5, New Guinea C |  |  | EC50 | 68 nM |
| COc1ccc(NC(=O)N2CCCCN3[C@H](CN(C)C)[C@H](c4ccc(C#Cc5ccccc5)cc4)[C@@H]3C2)cc1 | Cryptosporidium parvum | parasite growth | Iowa (Sterling) |  |  | EC50 | 8 nM |
| O=C(Nc1ccc([N+](=O)[O-])cc1Cl)c1cc(Cl)ccc1O | human alphaherpesvirus 1 |  | primary human keratinocytes, K26 GFP |  | baseline: CC50 over IC50 | selectivity index | 2.47 |
| CN[C@H](CC(C)C)C(=O)N[C@H]1C(=O)N[C@@H](CC(N)=O)C(=O)N[C@H]2C(=O)N[C@H]3C(=O)N[C@H](C(=O)N[C@H](C(=O)O)c4cc(O)cc(O)c4-c4cc3ccc4O)[C@H](O)c3ccc(c(Cl)c3)Oc3cc2cc(c3O[C@@H]2O[C@H](CO)[C@@H](O)[C@H](O)[C@H]2O[C@H]2C[C@](C)(N)[C@H](O)[C@H](C)O2)Oc2ccc(cc2Cl)[C@H]1O | Staphylococcus epidermidis | broth microdilution | methicillin-resistant isolates |  |  | MIC50 | 1 µg/mL (≈ 0.69 µM) |

Excerpt of the above:
| SMILES | target or system | test | test system | conditions | scale | measurement | value |
| --- | --- | --- | --- | --- | --- | --- | --- |
| O=C(/C=C\n1cnc(-c2cc(C(F)(F)F)cc(C(F)(F)F)c2)n1)NNc1ccccn1 | human alphaherpesvirus 1 | live-cell GFP imaging | primary human keratinocytes, K26 GFP |  |  | IC50 | 1760 nM |
| CN[C@H](CC(C)C)C(=O)N[C@H]1C(=O)N[C@@H](CC(N)=O)C(=O)N[C@H]2C(=O)N[C@H]3C(=O)N[C@H](C(=O)N[C@H](C(=O)O)c4cc(O)cc(O)c4-c4cc3ccc4O)[C@H](O)c3ccc(c(Cl)c3)Oc3cc2cc(c3O[C@@H]2O[C@H](CO)[C@@H](O)[C@H](O)[C@H]2O[C@H]2C[C@](C)(N)[C@H](O)[C@H](C)O2)Oc2ccc(cc2Cl)[C@H]1O | coagulase-negative staphylococci |  |  | concentration not given, MIC ≤1 µg/mL |  | isolates inhibited | 20.8% |
| N=C(N)c1ccc(OCc2ccccc2COc2ccc(C(=N)N)cc2)cc1 | Escherichia coli | checkerboard | mcr-1 polymyxin-resistant | concentration not given, 20 h, with: rifampicin |  | MIC of compound in combination | 25 µg/mL |
| CC(=O)NC[C@H]1CN(c2ccc(N3CCOCC3)c(F)c2)C(=O)O1 | Staphylococcus haemolyticus |  | mouse systemic infection | intravenous | survival | ED50 | 13.4 mg/kg |
| COc1ccnc(C(=O)O)c1O | Daphnia magna | immobilisation, semi-static water exposure |  | 48 h |  | EC50 | > 9.5 µg/mL |
| O=C(Nc1ccc([N+](=O)[O-])cc1Cl)c1cc(Cl)ccc1O | human alphaherpesvirus 1 |  | primary human keratinocytes, K26 GFP |  | baseline: CC50 over IC50 | selectivity index | 2.47 |
